Experimental data pooled from the literature.
Lines come from different studies, so protocols differ.
CNR1: Cannabinoid receptor 1 (CNR1, Homo sapiens, UniProt P21554)
Chain of UniProt P21554 (whole entry, unmodified, looked up): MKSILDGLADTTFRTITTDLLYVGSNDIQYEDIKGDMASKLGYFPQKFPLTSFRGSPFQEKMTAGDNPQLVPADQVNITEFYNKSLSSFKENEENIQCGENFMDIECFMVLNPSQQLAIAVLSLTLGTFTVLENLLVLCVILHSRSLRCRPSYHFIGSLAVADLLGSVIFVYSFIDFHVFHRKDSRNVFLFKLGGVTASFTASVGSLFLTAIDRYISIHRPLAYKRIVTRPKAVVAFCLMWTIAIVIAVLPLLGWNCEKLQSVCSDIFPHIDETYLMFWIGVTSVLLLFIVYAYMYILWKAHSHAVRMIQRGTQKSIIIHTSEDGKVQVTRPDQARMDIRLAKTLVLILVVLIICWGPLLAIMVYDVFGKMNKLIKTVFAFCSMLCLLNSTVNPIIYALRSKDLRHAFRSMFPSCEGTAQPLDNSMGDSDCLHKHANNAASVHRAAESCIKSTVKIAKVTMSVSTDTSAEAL
CNR1 I267L: Cannabinoid receptor 1 (CNR1, Homo sapiens, UniProt P21554, I267L)

For `CC(=O)OCCCCCn1c2ccccc2c2cc(C(=O)c3cccc4ccccc34)ccc21`, the EC50 was 55 nM (CNR1; GTPγS binding, agonist, radiometric; cell membranes).
With `CCCCCn1cc(C(=O)c2cccc3c2CC(C)(C)C3)c2ccccc21` the EC50 was 631 nM (CNR1; β-arrestin recruitment, agonist, BRET).
`CCCCCn1cc(C(=O)c2ccc(OC)cc2)c2ccccc21` gave a Kd of 0.0275 nM (CNR1; binding, SPR).
`CCCCCn1cc(C(=O)c2ccc(OC)cc2)c2ccccc21` has a Ki of 51.9 nM (CNR1; ligand displacement in cells, radioligand).
`CCCCCn1cc(C(=O)c2ccc3c(c2)CC(C)(C)C3)c2ccccc21` gave an EC50 of 166 nM (CNR1 I267L; G protein activation, agonist, BRET).
For `CCCCCn1c2ccccc2c2cc(C(=O)c3ccncc3)ccc21`, the EC50 was 166 nM (CNR1; cAMP, agonist, BRET).
`CCCCCn1cc(C(=O)c2cccc3ccccc23)c2ccccc21` gave an EC50 of 41.7 nM (CNR1 I267L; G protein activation, agonist, BRET).
The EC50 of `O=C(c1ccc2c(c1)c1ccccc1n2CCN1CCCCC1)c1cccc2ccccc12` is reported as 66.1 nM (CNR1; GTPγS binding, agonist, radiometric; cell membranes).
`CCCCC/C=C\C/C=C\C/C=C\C/C=C\CCCC(=O)NCc1ccc(O)c(OC)c1` has a Ki of 39.5 nM (CNR1; ligand displacement in cells, radioligand).
The EC50 of `CC1=C[C@H]2c3c(O)cc(CCc4ccccc4)cc3OC(C)(C)[C@@H]2CC1` is reported as 171 nM (CNR1; GTPγS binding, agonist, radiometric; cell membranes).
`O=C(c1ccc2c(c1)c1ccccc1n2CCN1CCOCC1)c1cccc2ccccc12` gave an EC50 of 102 nM (CNR1; GTPγS binding, agonist, radiometric; cell membranes).
For `CCCCCn1nc(C(=O)NC23CC4CC(CC(C4)C2)C3)c2ccccc21`, the Ki was 59.8 nM (CNR1; ligand displacement in cells, radioligand).
For `CCOC(=O)[C@@](CC)(CCCSCCOCCOCCNc1ccc([N+](=O)[O-])c2nonc12)NC(=O)c1ccc(C2CC2)c(Cc2ccc(F)cc2)n1`, the EC50 was > 10000 nM (CNR1; cAMP, agonist).
With `CCCCCn1cc(C(=O)c2ccc3ccccc3c2)c2ccccc21` the EC50 was 102 nM (CNR1; G protein activation, agonist, BRET).
For `CCCCn1c2ccccc2c2cc(C(=O)c3cccc4ccccc34)ccc21`, the EC50 was 102 nM (CNR1; GTPγS binding, agonist, radiometric; cell membranes).
The EC50 of `CCOC(=O)[C@](CC)(CCCSCCOCCOCCNC(=O)c1ccc(-c2c3ccc(=N)c(S(=O)(=O)O)c-3oc3c(S(=O)(=O)O)c(N)ccc23)c(C(=O)O)c1)NC(=O)c1ccc(C2CC2)c(Cc2ccc(F)cc2)n1` is reported as 86 nM (CNR1; cAMP, agonist).
The EC50 of `CCCCCCn1c2ccccc2c2cc(C(=O)c3cccc4ccccc34)ccc21` is reported as 38 nM (CNR1; GTPγS binding, agonist, radiometric; cell membranes).
The Ki of `CCCCCn1cc(C(=O)c2ccc(CC)c3ccccc23)c2ccccc21` is reported as 64.4 nM (CNR1; ligand displacement in cells, radioligand).
The IC50 of `CCCCCn1cc(C(=O)c2ccc(CC)c3ccccc23)c2ccccc21` is reported as 58 nM (CNR1; ligand displacement, radioligand; cell membranes).
